Results gathered from unrelated publications.
B1: human KIF2C; sequence looked up; chain AMDSSLQARLFPGLAIKIQRSNGLIHSANVRTVNLEKSCVSVEWAEGGATKGKEIDFDDVAAINPELLQLLPLHPKDNLPLQENVTIQKQKRRSVNSKIPAPKESLRSRSTRMSTVSELRITAQENDMEVELPAAANSRKQFSVPPAPTRPSCPAVAEIPLRMVSEEMEEQVHSIRGSSSANPVNSVRRKSCLVKEVEKMKNKREEKKAQNSEMRMKRAQEYDSSFPNWEFARMIKEFRATLECHPLTMTDPIEEHRICVCVRKRPLNKQELAKKEIDVISIPSKCLLLVHEPKLKVDLTKYLENQAFCFDFAFDETASNEVVYRFTARPLVQTIFEGGKATCFAYGQTGSGKTHTMGGDLSGKAQNASKGIYAMASRDVFLLKNQPCYRKLGLEVYVTFFEIYNGKLFDLLNKKAKLRVLEDGKQQVQVVGLQEHLVNSADDVIKMIDMGSACRTSGQTFANSNSSRSHACFQIILRAKGRMHGKFSLVDLAGNERGADTSSADRQTRMEGAEINKSLLALKECIRALGQNKAHTPFRESKLTQVLRDSFIGENSRTCMIATISPGISSCEYTLNTLRYADRVKELSPHSGPSGEQLIQMETEEMEACSNGALIPGNLSKEEEELSSQMSSFNEAMTQIRELEEKAMEELKEIIQQGPDWLELSEMTEQPDYDLETFVNKAESALAQQAKHFSALRDVIKALRLAMQLEEQASRQISSKKRPQ

Substance = B1 (human KIF2C); tested on = CYB5R4 knockout human cells; assay = PP4 interaction, 3xFLAG-PP4C IP-MS; conditions = concentration not given; scale = reference: CYB5R4 KO over parental; measurement = log2 fold change; result = -1.28
Substance = gentamicin sulfate; tested on = Pseudomonas aeruginosa; test system = ATCC BAA-2108, resistant; conditions = 18 h, 37 °C, LED light 10 min, 1.57 mW; measurement = MIC; result = 8 µM
Substance = colistin hydrochloride; tested on = Pseudomonas aeruginosa; assay = broth microdilution; test system = PAO1; measurement = MIC; result = 0.125 µg/mL
Substance = polymyxin B; tested on = Pseudomonas aeruginosa; assay = broth microdilution; test system = PAO1, Mueller-Hinton broth; conditions = 24 h, 37 °C; measurement = MIC; result = 1 µg/mL
Substance = colistin trifluoroacetate; tested on = Pseudomonas aeruginosa; assay = broth microdilution; test system = PAO1; measurement = MIC; result = 0.125 µg/mL
Substance = polymyxin B; tested on = Pseudomonas aeruginosa; test system = ATCC 10145; measurement = MIC; result = 0.7 µg/mL
Substance = prohibitin-2, human; tested on = CYB5R4 knockout human cells; assay = PP4 interaction, 3xFLAG-PP4C IP-MS; conditions = concentration not given; scale = reference: CYB5R4 KO over parental; measurement = log2 fold change; result = -0.31
Substance = colistin; tested on = Pseudomonas aeruginosa; test system = clinical isolate RKI 627/13; measurement = MIC; result = ≤ 1 µg/mL
Substance = Polymyxin B sulfate; tested on = Pseudomonas aeruginosa; assay = broth dilution; test system = PAO1; conditions = 22 to 24 h, 37 °C; measurement = MIC; result = 2 µg/mL
Substance = polymyxin B; tested on = Pseudomonas aeruginosa; assay = broth microdilution; test system = PAO1; measurement = MIC; result = 0.125 µg/mL
Substance = colistin sulfate; tested on = Pseudomonas aeruginosa; test system = DSM 50071; measurement = MIC; result = 0.5 µM
Substance = colistin; tested on = Pseudomonas aeruginosa; test system = PER-producing clinical isolate R13-23; measurement = MIC; result = 0.5 µg/mL

Excerpt of the above:
Substance = prohibitin-2, human; tested on = CYB5R4 knockout human cells; assay = PP4 interaction, 3xFLAG-PP4C IP-MS; conditions = concentration not given; scale = reference: CYB5R4 KO over parental; measurement = log2 fold change; result = -0.31
